Results of several laboratories.
Every numbered part comes from another study and shows a few of its results, in no order. “And” joins repeats or separate records; there may be more than shown. ± marks the error that the study gave. Values after ≈ are worked out from the molar mass of the structure shown.
UniProt P35372, sequence (whole entry, looked up): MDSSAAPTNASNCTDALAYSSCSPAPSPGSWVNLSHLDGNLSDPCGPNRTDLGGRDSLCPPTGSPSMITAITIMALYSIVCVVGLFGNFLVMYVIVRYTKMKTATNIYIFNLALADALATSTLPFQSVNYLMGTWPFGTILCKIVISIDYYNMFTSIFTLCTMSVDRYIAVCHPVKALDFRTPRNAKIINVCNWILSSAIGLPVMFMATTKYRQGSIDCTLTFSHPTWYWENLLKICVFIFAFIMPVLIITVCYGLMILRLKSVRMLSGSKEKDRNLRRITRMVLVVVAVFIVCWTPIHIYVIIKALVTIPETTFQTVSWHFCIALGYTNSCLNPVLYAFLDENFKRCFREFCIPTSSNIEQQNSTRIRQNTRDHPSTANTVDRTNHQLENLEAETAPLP
UniProt P41143, sequence (whole entry, looked up): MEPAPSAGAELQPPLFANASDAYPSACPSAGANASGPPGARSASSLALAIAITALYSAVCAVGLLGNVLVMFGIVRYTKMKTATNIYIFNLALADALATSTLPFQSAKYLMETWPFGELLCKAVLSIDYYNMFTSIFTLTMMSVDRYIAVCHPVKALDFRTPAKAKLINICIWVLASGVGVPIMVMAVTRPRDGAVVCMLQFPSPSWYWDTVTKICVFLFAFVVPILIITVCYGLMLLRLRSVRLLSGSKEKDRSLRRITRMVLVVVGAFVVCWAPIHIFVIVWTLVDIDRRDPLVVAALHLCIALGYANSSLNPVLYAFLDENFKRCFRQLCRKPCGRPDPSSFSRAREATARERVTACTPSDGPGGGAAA

Study 1 — measurement: MRT(0-inf)
SMILES: Cn1cc(-c2cccc(CN3CCC4(CC3)COc3c4ccc4c3CN([C@H]3CCC(=O)NC3=O)C4=O)c2)cn1
rat, plasma; intravenous, 1.02 mg/kg: 2.41 h
rat; oral, 3 mg/kg: 4.07 h and 5.49 h and 5.15 h
cynomolgus monkey, plasma; oral, 3.02 mg/kg: 13.6 h
cynomolgus monkey; intravenous, 1 mg/kg: 9.15 h and 6.68 h and 7.19 h
rat, plasma; oral, 2.98 mg/kg, group mean: 4.9 h
cynomolgus monkey; oral, 3 mg/kg: 14.9 h and 14.1 h and 12 h
cynomolgus monkey, plasma; intravenous, 1 mg/kg: 7.67 h
rat; intravenous, 1 mg/kg: 2.4 h and 2.43 h and 2.41 h

Study 2 — organism: Staphylococcus aureus; strain: USA300; measurement: MIC
Structure (SMILES): CCCCC[C@@H]1CC(=O)N[C@@H](C(C)C)C(=O)N[C@H](CCCNC(=N)N)C(=O)N[C@@H](CO)C(=O)NCC(=O)N(C)[C@H](Cc2ccccc2)C(=O)N[C@@H](CC(C)C)C(=O)N[C@H](CCCNC(=N)N)C(=O)N[C@@H](CC(N)=O)C(=O)N[C@H](C(C)C)C(=O)N[C@H](Cc2c[nH]c3ccccc23)C(=O)NCCCC(=O)O1
together with: menaquinone 0.5 µg/mL: 8 µg/mL (≈ 5.49 µM)
together with: menaquinone 8 µg/mL: 64 µg/mL (≈ 43.9 µM)
together with: ubiquinone 16 µg/mL: 4 µg/mL (≈ 2.75 µM)
together with: menaquinone 0.25 µg/mL: 8 µg/mL (≈ 5.49 µM)

Mixed results
N=C(N)NCCCCCCN1CCC23c4c5ccc(O)c4OC2c2nc4ccccc4cc2CC3(O)C1C5 (stereo not shown)  specific binding (OPRM1 (Homo sapiens, UniProt P35372); competitor, radioligand binding; 100 pM): 146% and 110% and 96.1%
C=CCN1C(=O)C(O)(C(=O)O)Oc2cc(F)ccc21 (stereo not shown)  hypocotyl length (Arabidopsis thaliana; Col-0; 25 µg/mL, seed germination, single repetition): 1.72 cm and 1.73 cm and 1.66 cm and 1.79 cm and 1.7 cm
CC(C)OC(=O)[C@H](CCC(=O)C=[N+]=[N-])NC(=O)[C@H](Cc1c[nH]c2ccccc12)NC(=O)C12CCN(CC1)CC2  remaining compound (CES1-/- mouse GI tissue homogenate; 60 min): 1%
NC(=O)NCCCCCCN1CCC23c4c5ccc(O)c4OC2c2nc4ccccc4cc2CC3(O)C1C5 (stereo not shown)  Emax (Delta-type opioid receptor, with Gi1 (OPRD1, Homo sapiens, UniProt P41143); human cells): 54 ± 3%
